Measurements gathered from unrelated publications.
Each numbered part is a random draw from the data of one study; scales do not carry over between parts.

Block 1
Target: Interferon regulatory factor 7, full length, phosphomimetic (IRF7, Homo sapiens, UniProt Q92985, residues 1-503, S101K/S471D/S472D/S475D/S476D/S477D/S483D/S484D/S487D)
Sequence of UniProt Q92985 (whole entry, unmodified, looked up): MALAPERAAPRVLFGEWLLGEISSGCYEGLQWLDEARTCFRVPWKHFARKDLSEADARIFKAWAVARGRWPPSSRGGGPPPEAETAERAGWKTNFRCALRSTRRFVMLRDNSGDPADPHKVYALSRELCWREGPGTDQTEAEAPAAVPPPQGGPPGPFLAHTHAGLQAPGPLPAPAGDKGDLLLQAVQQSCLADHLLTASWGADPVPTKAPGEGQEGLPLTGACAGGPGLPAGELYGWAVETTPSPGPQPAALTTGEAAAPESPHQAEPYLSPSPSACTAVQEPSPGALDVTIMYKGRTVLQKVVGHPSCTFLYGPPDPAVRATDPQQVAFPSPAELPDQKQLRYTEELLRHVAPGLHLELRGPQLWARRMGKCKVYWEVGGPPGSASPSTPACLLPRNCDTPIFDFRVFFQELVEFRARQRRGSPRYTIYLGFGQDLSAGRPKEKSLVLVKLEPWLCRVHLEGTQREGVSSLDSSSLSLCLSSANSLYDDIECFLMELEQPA
Method: protein-binding microarray
Molecule type: double-stranded DNA, one strand shown
Matrix: in vitro
Concentration: 250 nM
Setting: 60-bp whole probe
With: salmon DNA 0.4 mg/ml
Relative to: random background probes
Direction: higher = stronger binding
Measurement: log fluorescence
GCCTAGCACTTAGGTTTGCTACTGCTTTAGTGCTAGGTCTTGATTCGCTTGACGCTGCTG: -0.162 z-score
GCCTAGCACTTATGTTCCGGTTTCGGTTAGTGCTAGGTCTTGATTCGCTTGACGCTGCTG: 9.67 z-score
GCCTAGCACTTAGGACTGGGGACGGGGTTAGTGCTAGTCTTGATTCGCTTGACGCTGCTG: 0.643 z-score
GCCTAGCACTTAGATATAAGTTTCGATTAGTGCTAGGTCTTGATTCGCTTGACGCTGCTG: 8.7 z-score

Block 2
Target: Histone acetyltransferase KAT6A, winged helix 1, GST fusion (KAT6A, Homo sapiens, UniProt Q92794, residues 1-85)
Method: protein binding microarray
Molecule type: double-stranded DNA, one strand shown
Matrix: in vitro
Concentration: not given
Setting: 8-mer, flanks averaged, mean of 2 arrays, mostly near background
Relative to: not given
Direction: higher = stronger binding
Measurement: E-score
Target sequence (chain): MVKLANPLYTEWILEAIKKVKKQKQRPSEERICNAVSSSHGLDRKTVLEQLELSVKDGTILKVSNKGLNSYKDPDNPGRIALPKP
CCTACAGA: -0.128
GAACCGAA: -0.0562
GCTCGAAA: -0.156

Other studies, line by line
UNK zinc fingers 1-6, GST-SBP tag: RING finger protein unkempt homolog, zinc fingers 1-6, GST-SBP tag (UNK, Homo sapiens, UniProt Q9C0B0, residues 30-357)
Sequence of UniProt Q9C0B0 (30-357, looked up): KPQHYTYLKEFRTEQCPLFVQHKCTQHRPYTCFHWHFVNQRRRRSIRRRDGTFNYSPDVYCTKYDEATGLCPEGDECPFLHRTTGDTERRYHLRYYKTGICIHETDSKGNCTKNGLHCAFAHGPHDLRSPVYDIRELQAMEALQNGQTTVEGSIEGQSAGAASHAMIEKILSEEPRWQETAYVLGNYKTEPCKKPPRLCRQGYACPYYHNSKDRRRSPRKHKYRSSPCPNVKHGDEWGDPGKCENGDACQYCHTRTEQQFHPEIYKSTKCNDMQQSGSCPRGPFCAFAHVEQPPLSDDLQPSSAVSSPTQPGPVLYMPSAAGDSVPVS
GGGAGUUCUACAGUCCGACGAUCUCGGAUGCUGUGCUGGGUCACUUUUCAUAUCCAGAUCCUUCACAGUGGACAGAUGAAGAACUGGGAAUCCCUCCUGAUGAUGAAGACUGAAGGUGUAAACUCUCUGGACGAGUAGGAGCACAACAGAGGAUUGAGCAUCA — bound/input enrichment (UNK zinc fingers 1-6, GST-SBP tag; RNA Bind-n-Seq; RNA, in vitro; not given, RNA with constant flanks, human-mouse chimeric sites, ends assumed; relative to: input RNA pool, higher = stronger binding): 0.343 ratio
PhoQ, residues 284 288 289 292 302 303 ALASRC — fold induction (PhoP, residues 12 14 15 18 19 GQAIL (Escherichia coli, UniProt P23836); Sort-seq, refers to: YFP reporter; E. coli; PhoQ-PhoP variant library, with: 10 µM Mg2+; relative to: high Mg2+ state, higher = stronger signaling): 7.39
GGGAGUUCUACAGUCCGACGAUCGGCCUGGGACCGUCCUGGGCUAGUACAAAUAGCGGCAUGGAGGCUCAGAGAGGAAAGUUUGUUAGUGGAGGCAGUGGAGAGGUCGUCCAUGUACGGUCCUUUACUCGAUAGAUGUGUUCUCAACAGAGGAUUGAGCAUCA — bound/input enrichment (UNK zinc fingers 1-6, GST-SBP tag; RNA Bind-n-Seq; RNA, in vitro; not given, RNA with constant flanks, human-mouse chimeric sites, ends assumed; relative to: input RNA pool, higher = stronger binding): 0.568 ratio

Excerpt of the above (other studies, line by line):
GGGAGUUCUACAGUCCGACGAUCGGCCUGGGACCGUCCUGGGCUAGUACAAAUAGCGGCAUGGAGGCUCAGAGAGGAAAGUUUGUUAGUGGAGGCAGUGGAGAGGUCGUCCAUGUACGGUCCUUUACUCGAUAGAUGUGUUCUCAACAGAGGAUUGAGCAUCA — bound/input enrichment (UNK zinc fingers 1-6, GST-SBP tag; RNA Bind-n-Seq; RNA, in vitro; not given, RNA with constant flanks, human-mouse chimeric sites, ends assumed; relative to: input RNA pool, higher = stronger binding): 0.568 ratio
GGGAGUUCUACAGUCCGACGAUCUCGGAUGCUGUGCUGGGUCACUUUUCAUAUCCAGAUCCUUCACAGUGGACAGAUGAAGAACUGGGAAUCCCUCCUGAUGAUGAAGACUGAAGGUGUAAACUCUCUGGACGAGUAGGAGCACAACAGAGGAUUGAGCAUCA — bound/input enrichment (UNK zinc fingers 1-6, GST-SBP tag; RNA Bind-n-Seq; RNA, in vitro; not given, RNA with constant flanks, human-mouse chimeric sites, ends assumed; relative to: input RNA pool, higher = stronger binding): 0.343 ratio
